Results of several laboratories.
Each line is one published result; not all experiments were run side by side. Numbers after ± are the reported error.
Target: Kappa-type opioid receptor (OPRK1, Homo sapiens, UniProt P41145)
UniProt P41145, sequence (whole entry, looked up): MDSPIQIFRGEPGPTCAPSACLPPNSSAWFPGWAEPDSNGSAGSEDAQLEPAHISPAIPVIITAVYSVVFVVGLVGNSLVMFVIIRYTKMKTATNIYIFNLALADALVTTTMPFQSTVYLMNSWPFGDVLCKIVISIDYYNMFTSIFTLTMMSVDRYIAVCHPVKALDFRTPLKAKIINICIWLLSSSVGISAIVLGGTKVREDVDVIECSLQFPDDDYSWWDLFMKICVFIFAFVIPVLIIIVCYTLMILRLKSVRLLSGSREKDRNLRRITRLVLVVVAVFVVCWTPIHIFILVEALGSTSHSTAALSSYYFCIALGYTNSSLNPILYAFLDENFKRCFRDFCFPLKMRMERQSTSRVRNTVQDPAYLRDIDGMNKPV

SMILES | assay | test system | setting | scale | quantity | result
O=C(Cc1ccc(Cl)c(Cl)c1)N1CCNC2COCC(N3CCCC3)C21 (stereo not drawn) | β-arrestin-2 recruitment, agonist | U2OS | 1.5 h | reference: U-69593 maximal response | Emax | 67 ± 24.4%
Cc1cc(Nc2nc(C[C@@]3(C(=O)O)CCN(Cc4cccc(Cl)c4F)[C@H](C)C3)cc(C)c2F)[nH]n1 | inhibitor | – | 10 µM | – | inhibition | 1.17%
O=C(Cc1cccc(Cl)c1)N1CCN[C@@H]2COC[C@H](N3CCCC3)[C@H]21 (relative stereo) | – | – | concentration not given | – | loss of binding affinity | 4 to 8 fold
CN[C@@H]1[C@H](O)[C@H](NC)[C@H]2O[C@]3(O)[C@H](O[C@@H]2[C@H]1O)O[C@H](C)C[C@H]3NC(=O)Cc1ccc(Cl)cn1 | ligand displacement, radioligand | – | 10 µM | – | inhibition | -19%
C/C(=N\OCCCN1CCCCC1)c1ccc(C(F)(F)F)cc1 | agonist, cAMP | – | 10 µM | – | activation | 2.93%
CCc1nnc(-c2c(OC)cc(-c3cnc4cc(-c5cnn(C)c5)ccn34)cc2OC)o1 | specific binding, agonist, radioligand binding | – | 10 µM | reference: control specific binding | inhibition | 6%
O=C(Cc1ccc(Cl)c(Cl)c1)N1CCN(C(=O)C2(O)CCCC2)[C@@H]2COC[C@H](N3CCCC3)[C@H]21 (single isomer, unassigned) | agonist | – | 0.3333 h | – | Emax | 93%
CN(C)[C@H](CNC(=O)/C=C/c1cccc2ccccc12)Cc1ccc(O)cc1 | – | – | – | reference: kappa over mu receptor | selectivity ratio | 11
CN1CC[C@]23c4c5ccc(O)c4C[C@H]2[C@@H](O)C=C[C@H]3[C@H]1C5 | receptor activation, agonist, cell-based | – | – | – | Emax | 76 ± 5%
N[C@H](C(=O)N1CCCC1)C1CCN(c2nccc3c(-c4ncc(Cl)cc4Cl)cccc23)CC1 | functional response, agonist | – | 10 µM | – | response | 60%
Cc1cc(-c2ccc3ccccc3c2)nnc1NCCN1CCN(C)CC1 | antagonist | – | 10000 nM | reference: control | activity | 4%
COc1ccc(F)cc1S(=O)(=O)Nc1cnc2c(c1)C(=O)NCCO2 | ligand displacement, radioligand | – | 10 µM | – | inhibition | -9%

For quick reference, copied from above:
SMILES | assay | test system | setting | scale | quantity | result
CN(C)[C@H](CNC(=O)/C=C/c1cccc2ccccc12)Cc1ccc(O)cc1 | – | – | – | reference: kappa over mu receptor | selectivity ratio | 11
